Published values gathered from unrelated publications.
Protocols differ between the studies behind these lines. “And” joins repeats or separate records; there may be more than shown. Numbers after ± are the reported error.

CCCCCCOC(=O)[C@]1(O)C[C@@H]2O[C@@]1(C)n1c3ccccc3c3c4c(c5c6ccccc6n2c5c31)C(=O)NC4 — relative cell number (SK-OV-3; ATP; 10 µM, 4 days, 3D U-bottom low-attachment; reference: untreated): 84.7%
Clc1nc(NCc2ccco2)c2[nH]cnc2n1 — ΔPSI (iPSC-derived cardiomyocytes; RNA-seq, refers to: ADGRD1 chr12 exon ending 130982063; unit not given; reference: DMSO minus compound): -0.209
Cn1cc(Nc2nccc(-c3ccc4c(c3)CN(C3COC3)CC[C@H]4NC(=O)c3cn(C(C)(C)C)nn3)n2)cn1 — pathway activation z-score (mouse splenic B cells; refers to: UVB-Induced MAPK signalling; 30 mg/kg, IgD-activated in vivo; reference: vehicle, direction not given): 2.53
CCOc1ccc(N([C@@H](C)C(=O)Nc2ccc(Br)c(C)c2)S(C)(=O)=O)cc1 — maximum inhibition (MEF with TRE-FLAG-LMNB1; LMNB1 level, high-content screening; 250 µM): 19%
COc1ccc(-n2nc(C(C)=O)s/c2=N\N=C(/C)c2ccc(NC(=O)c3ccc(C)cc3)cc2)cc1 — viability (HepG2; 5 µM): 4.22%
C[C@H]1CN(C2COC2)CCN1c1ccc(Nc2cc(-c3ccnc(N4CCn5c(cc6c5CC(C)(C)C6)C4=O)c3CO)cn(C)c2=O)nc1 — maximum inhibition (TMD8 wild-type; calcium flux, FLIPR; 2 h preincubation, added: anti-IgM): 91.8%
O=C(/C=C/C=C/C=C/C1CCCCC1)NC1=C[C@@](O)(/C=C/C=C/C=C/C(=O)NC2=C(O)CCC2=O)[C@@H]2O[C@@H]2C1=O — GI50 (769-P; cell growth, CellTiter-Glo; 78 h): 9.42 µM
O=C(N[C@H]1CC[C@H](C(=O)O)CC1)[C@@H]1NC2(CCCCC2)[C@@]2(C(=O)Nc3cc(Cl)ccc32)[C@H]1c1cccc(Cl)c1F — mRNA level (RS4;11; qRT-PCR, refers to: p53 target genes; concentration not given, 3 h): no effect
Cc1cc2c(cc1C)[n+](Cc1ccc3ccccc3n1)cn2Cc1ccc2ccccc2n1 — mean growth percentage (NSCLC cell lines; NCI60 one-dose screen; 10 µM): 11.8%
O=C(O)c1cccnc1Nc1cccc(C(F)(F)F)c1 — inhibition (MCF7 TEAD luciferase reporter; reporter gene; concentration not given): no inhibition
CC1CC(c2ccccc2)n2nc(N)nc2N1 (centres unmarked) — maximum inhibition (MEF with TRE-FLAG-LMNB1; LMNB1 level, high-content screening; 250 µM): 23%
Nc1cccc2c1C(=O)N(C1CCC(=O)NC1=O)C2=O (centres unmarked) — viability (bone marrow CD138+ myeloma cells; XTT; 3 µM, phenol red-free RPMI): 4%
COc1cnc2cccc(N3CCc4c(cc(Cn5ccnc5C)cc4-c4cn(C)nc4C(F)(F)F)C3=O)c2c1 — EC50 (HEC-50B; cell growth, inhibitor; 120 h): > 30 µM
CCCc1n(Cc2ccc3ccccc3n2)cc[n+]1Cc1ccc2ccccc2c1.[Cl-] — TGI (NSCLC cell lines; upper end of range): ≤ 27.6 µM
Cn1cc(-c2ccc(-c3cncc(Cl)c3N3CCC4(CCNC4=O)CC3)cc2)cn1 — log2 fold change (COLO 205; gene expression, microarray, refers to: PLA2G2A mRNA; concentration not given, 6 h; reference: untreated cells): -6.8
Nc1ncnc2c1ncn2[C@@H]1O[C@H](CO)[C@@H](O)[C@H]1O — log2 fold change (activated human T cells; refers to: AMP; 30 µM; reference: DMSO): 0.223 and 0.4 and 0.5
O=c1cc(-c2ccc(O)cc2)oc2c([C@@H]3OC[C@H](O)[C@H](O)[C@H]3O)c(O)c([C@@H]3O[C@H](CO)[C@@H](O)[C@H](O)[C@H]3O)c(O)c12 — viability (AC16; CCK-8; 40 to 80 ng/mL, 24 h): increased
CCn1cc(-c2cc(Cn3ccnc3)cc3c2CCN([C@H](c2cc(OC)ccn2)C2CC2)C3=O)c(C(F)(F)F)n1 — EC50 (JHH6; cell growth; 120 h): > 30 µM
COc1ncccc1CN[C@@H]1C[C@H]1c1ccccc1 (racemic) — GI50 (THP-1 wild type cells; MTS; 72 h): > 50 µM
O=c1[nH]nc(OCCCc2ccc(Cl)cc2)c(NCc2cccnc2)c1Br — log2 fold change (HEK293T; RNA-seq, refers to: HSPA1A mRNA; 10 µM, 6 h; reference: vehicle): -0.572
CCCCN1C[C@H](O)[C@@H](O)[C@@H](O)[C@H]1CO — IC50 (sample BB patient fibroblasts; Gb3 level lowering, LC-MS/MS, refers to: Gb3 d18:1/20:0; 216 h): 13.7 µM
O=C(Nc1c(Cl)cncc1Cl)c1ccc(OC(F)F)c(OCC2CC2)c1 — cAMP level difference (PBMC; MSD; 0.0001 µM, unit not given, added: PGE2; reference: DMSO): -0.72
Cc1ccc2c(c1)C(=O)[C@]1(O)CCN(c3ccc4nc(C)ccc4c3)C1=N2.Cl — polysomal mRNA increase (murine cells; polysome RT-qPCR, refers to: PDGFRα; 5 µM): ~50%
COC(=O)CCc1n(Cc2ccc3ccccc3c2)c2ccccc2[n+]1Cc1ccc2ccccc2c1 — mean growth percentage (NSCLC cell lines; NCI60 one-dose screen; 10 µM): 9.86%
Cc1cccc(-c2[nH]c(CNc3ccccc3F)nc2-c2ccc3ncnn3c2)n1 — viability (bone marrow CD138+ myeloma cells; XTT; 1 µM, phenol red-free RPMI): 17%
CCCCc1nc(Cl)c(CO)n1Cc1ccc(-c2ccccc2-c2nn[nH]n2)cc1 — log2 fold change (human PBMC; RNA-seq, refers to: NRG1 mRNA; 10 µg/mL, 24 h; reference: untreated control): -3.02
N#Cc1ccc(Oc2ccc3c(c2)COB3O)cc1 — cAMP level difference (PBMC; MSD; 10 µM, unit not given, added: PGE2; reference: DMSO): -2.07
C=CC(=O)Nc1cc2c(Nc3ccc(OCc4ccccn4)c(Cl)c3)ncnc2cc1OCCN1CCOCC1 — selectivity ratio (NCI-H2073 EGFR ASV knock-in; cell proliferation, CellTiter-Glo; reference: knock-in over parental NCI-H2073): 0.8
CCCc1n(Cc2ccc3ccccc3n2)cc[n+]1Cc1ccc2ccccc2n1 — growth (NSCLC cell lines; NCI60 one-dose; 10 µM, average over cell lines): 25 to 31.8%
C=CC(=O)N1CCC[C@@H](c2ccc(C(N)=O)c3[nH]ccc23)C1 — maximum inhibition (TMD8 wild-type; calcium flux, FLIPR; 1 h preincubation, added: anti-IgM): 41.6%
CC(C)NCC(O)c1ccc(O)c(O)c1 (centres unmarked) — sarcomere length (mouse ventricular cardiomyocytes; dose not given, 0.335 s): 1.8 µm
Cc1c(C)c2c(c(C)c1O)CCC(C)(COc1ccc(CC3SC(=O)NC3=O)cc1)O2 (centres unmarked) — IC50 (hepatocytes, iPSC-derived, line W3; cell viability, RealTime-Glo MT; 48 h, differentiation day 23): 95 µM
COc1cc(/C=C/C(=O)N2CCC=CC2=O)cc(OC)c1OC — mRNA level (MDA-MB-468; qRT-PCR, refers to: PRDX6; 30 µM, 6 h; reference: time zero): 98.3 ± 4.9%
CC/C(=N\NC(=O)NCc1cccc(O)c1)c1ccc(O)c(C)c1O — log ratio (SK-OV-3; gene expression, microarray, refers to: LRRN4; 10 µM, 24 h; reference: DMSO): 3.26
Cc1n(Cc2ccc3ccccc3n2)cc[n+]1Cc1ccc2ccccc2c1.[Br-] — TGI (NSCLC cell lines; upper end of range): ≤ 27.6 µM
COc1ccc([C@H]2N(c3ccc(Cl)c(Cl)c3)C(=O)[C@@H]3CCCN32)c(OC)c1OC (racemic) — mutant huntingtin-induced cytotoxicity (PC-12, differentiated; 50 µM, 4 days): decreased
COc1ccc(-c2coc3cc(O)ccc3c2=O)cc1 — TEER (Caco-2 monolayers; 100 µg/mL, 15 min; reference: 0 min value): ≤ 120%
CCN(CC)S(=O)(=O)Nc1cccc(-c2ccc3c(NC(=O)C4CC4)n[nH]c3c2)c1 — LRP6-positive cells (HEK293T; flow cytometry, refers to: surface LRP6; concentration not given, 8 h, added: WNT3A): 63.2%

For quick reference, copied from above:
O=c1cc(-c2ccc(O)cc2)oc2c([C@@H]3OC[C@H](O)[C@H](O)[C@H]3O)c(O)c([C@@H]3O[C@H](CO)[C@@H](O)[C@H](O)[C@H]3O)c(O)c12 — viability (AC16; CCK-8; 40 to 80 ng/mL, 24 h): increased
CCn1cc(-c2cc(Cn3ccnc3)cc3c2CCN([C@H](c2cc(OC)ccn2)C2CC2)C3=O)c(C(F)(F)F)n1 — EC50 (JHH6; cell growth; 120 h): > 30 µM
COc1ncccc1CN[C@@H]1C[C@H]1c1ccccc1 (racemic) — GI50 (THP-1 wild type cells; MTS; 72 h): > 50 µM
O=c1[nH]nc(OCCCc2ccc(Cl)cc2)c(NCc2cccnc2)c1Br — log2 fold change (HEK293T; RNA-seq, refers to: HSPA1A mRNA; 10 µM, 6 h; reference: vehicle): -0.572
CCCCN1C[C@H](O)[C@@H](O)[C@@H](O)[C@H]1CO — IC50 (sample BB patient fibroblasts; Gb3 level lowering, LC-MS/MS, refers to: Gb3 d18:1/20:0; 216 h): 13.7 µM
